Measured values collected from several papers.
Several values in a cell are separate wells, animals, samples, runs or records.
Cell line: Hs-578T

SMILES | assay | conditions | how to read | measurement | result
C#C[C@@]1(O)[C@@H](CO)O[C@@H](n2cc(I)c3c(N)ncnc32)[C@@H]1O | SRB | NCI-60 screen |  | TGI | 7.12 µM and 8.62 µM
CCCCN1CCN(c2ccc3nc(-c4ccc5nc(-c6cc(OC)ccc6OC)[nH]c5c4)[nH]c3c2)CC1 | SRB | 10 µM, 48 h |  | growth percent | 95.1%
O=C1NCCc2[nH]c(-c3ccncc3)cc21 | MTS | NCI60 panel |  | IC50 | > 10 µM
CCCCN1CCN(c2ccc3[nH]c(-c4ccc5[nH]c(-c6ccc(OCC)cc6)nc5c4)nc3c2)CC1 | SRB | 10 µM, 48 h |  | growth percent | 74.4%
CCN(CC)c1ccc(C=NNC(=O)CSc2nc3ccccc3c(=O)n2Cc2ccc(S(N)(=O)=O)cc2)c(O)c1 | NCI five-dose screen |  |  | TGI | > 100 µM
CN1CCN(c2ccc3[nH]c(-c4ccc5[nH]c(-c6ccc(C(F)(F)F)cc6)nc5c4)nc3c2)CC1 | SRB | 10 µM, 48 h |  | growth percent | 26.4%
Cc1cc(=O)[nH]n1-c1nc(-c2ccc(Cl)cc2)c2c(NC(=O)c3ccccc3)nnc-2[nH]1 | SRB | 10 µM, NCI60 single-dose screen | reference: untreated | cell growth | 93.6%
Cn1cncc1C1=CN(c2ncnc3[nH]cnc23)CCS1 |  |  |  | GI50 | 5.5 µM
CSc1nc(-c2ccc(Cl)cc2)c2c(NC(=O)c3ccccc3)nnc-2[nH]1 | SRB | 10 µM, NCI60 single-dose screen | reference: untreated | cell growth | 86.7%
CCOc1ccc(-c2nc3cc(-c4nc5cc(N6CCN(C)CC6)ccc5[nH]4)ccc3[nH]2)cc1OCC | SRB | 10 µM, 48 h |  | growth percent | 11.1%
O=C(Nc1nnc2n3c(=S)[nH][nH]c3nc(-c3ccc(Cl)cc3)c1-2)c1ccccc1 | SRB | 10 µM, NCI60 single-dose screen | reference: untreated | cell growth | 74%
C#C[C@@]1(O)[C@@H](CO)O[C@@H](n2cc(F)c3c(N)ncnc32)[C@@H]1O | SRB | NCI-60 screen |  | TGI | > 100 µM
